Measurements collected from several papers.
± gives the spread as reported.
Sequence of UniProt P41146 (whole entry, looked up): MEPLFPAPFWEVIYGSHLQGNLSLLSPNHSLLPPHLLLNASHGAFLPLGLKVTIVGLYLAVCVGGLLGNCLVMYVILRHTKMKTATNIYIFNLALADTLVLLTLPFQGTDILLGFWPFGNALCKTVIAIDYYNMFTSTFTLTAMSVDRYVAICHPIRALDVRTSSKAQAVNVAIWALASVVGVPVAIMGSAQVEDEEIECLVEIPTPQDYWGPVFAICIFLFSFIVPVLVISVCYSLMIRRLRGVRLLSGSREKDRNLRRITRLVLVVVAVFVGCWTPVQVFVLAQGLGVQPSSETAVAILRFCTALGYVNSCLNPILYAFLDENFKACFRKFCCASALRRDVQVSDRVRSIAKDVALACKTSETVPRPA
Sequence of UniProt Q96PY6 (whole entry, looked up): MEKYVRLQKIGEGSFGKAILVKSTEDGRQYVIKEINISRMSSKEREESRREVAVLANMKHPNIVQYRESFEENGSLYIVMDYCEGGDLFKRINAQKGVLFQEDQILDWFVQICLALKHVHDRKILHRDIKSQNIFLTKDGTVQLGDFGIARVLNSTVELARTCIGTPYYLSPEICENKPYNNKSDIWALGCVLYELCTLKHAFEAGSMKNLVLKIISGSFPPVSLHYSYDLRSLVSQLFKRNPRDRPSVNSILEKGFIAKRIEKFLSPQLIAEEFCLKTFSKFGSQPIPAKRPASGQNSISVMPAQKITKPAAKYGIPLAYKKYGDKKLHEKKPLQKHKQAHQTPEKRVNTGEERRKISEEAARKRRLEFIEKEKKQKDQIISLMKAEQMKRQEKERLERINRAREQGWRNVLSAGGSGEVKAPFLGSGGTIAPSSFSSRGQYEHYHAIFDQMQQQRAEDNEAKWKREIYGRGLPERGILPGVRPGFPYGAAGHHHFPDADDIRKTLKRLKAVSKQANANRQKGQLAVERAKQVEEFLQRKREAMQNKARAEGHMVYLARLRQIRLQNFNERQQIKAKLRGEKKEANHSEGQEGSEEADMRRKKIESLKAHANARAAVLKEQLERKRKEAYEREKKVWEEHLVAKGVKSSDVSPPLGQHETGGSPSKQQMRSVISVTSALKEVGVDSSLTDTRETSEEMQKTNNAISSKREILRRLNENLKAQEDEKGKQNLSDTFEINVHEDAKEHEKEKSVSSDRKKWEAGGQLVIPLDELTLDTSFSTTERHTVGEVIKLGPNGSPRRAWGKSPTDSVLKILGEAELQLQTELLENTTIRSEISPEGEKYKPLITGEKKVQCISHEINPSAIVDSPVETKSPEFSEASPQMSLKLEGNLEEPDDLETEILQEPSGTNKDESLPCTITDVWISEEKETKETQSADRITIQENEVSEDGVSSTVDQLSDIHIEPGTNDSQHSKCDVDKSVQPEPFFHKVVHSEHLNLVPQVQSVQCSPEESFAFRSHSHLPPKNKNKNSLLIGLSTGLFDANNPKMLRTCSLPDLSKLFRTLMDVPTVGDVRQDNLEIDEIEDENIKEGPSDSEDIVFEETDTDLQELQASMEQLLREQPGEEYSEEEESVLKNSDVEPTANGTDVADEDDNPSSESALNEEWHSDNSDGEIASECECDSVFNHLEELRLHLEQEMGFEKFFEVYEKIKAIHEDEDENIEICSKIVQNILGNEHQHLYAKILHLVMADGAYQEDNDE

O=C(Nc1cccnn1)N1CCC(=Cc2cccc(Oc3ccc(C(F)(F)F)cn3)c2)CC1
compound concentration (COS cells expressing human FAAH; cell lysate; 100 nM, 0 h, quantification limit 5 nM): not detected

COc1cc2c(Oc3ccc4[nH]c(C)cc4c3F)ccnc2cc1OCC1(N)CC1
grade 3 ALT elevation (paediatric recurrent refractory sarcoma; 12 mg): 0%

CO[C@H]1C[C@@H]2CC[C@@H](C)[C@@](O)(O2)C(=O)C(=O)N2CCCC[C@H]2C(=O)O[C@H]([C@H](C)C[C@@H]2CC[C@@H](OC(=O)NCCOCCOCCOCCOCCOCCOCCOCCOCCC(=O)N3CCc4cc(Cn5nc(-c6ccc7oc(N)nc7c6)c6c(N)ncnc65)ccc4C3)[C@H](OC)C2)C[C@@H](O)[C@H](C)/C=C(\C)[C@@H](O)[C@@H](OC)C(=O)[C@H](C)C[C@H](C)/C=C/C=C/C=C/1C
decreased appetite incidence (patients with advanced solid tumours; intravenous, 6 mg weekly, grade 3 or higher): 0%

C[C@H]1CN(c2n[nH]c3nc(N[C@H]4CC[C@H](NS(=O)(=O)CCC(F)(F)F)CC4)ncc23)CCO1
relative abundance (NEK1 (Homo sapiens, UniProt Q96PY6); inhibitor, Kinobeads competition profiling; 0.032 µM; baseline: vehicle): 0.99

COc1cc(Nc2ncc(F)c(Nc3ccc4c(n3)NC(=O)C(C)(C)O4)n2)cc(OC)c1OC
IC50 (Nociceptin receptor (OPRL1, Homo sapiens, UniProt P41146); binding): > 10 µM

O=c1ccc2ccccc2o1
point of departure (HepaRG 3D spheroids; steatosis; 168 h, high-content imaging): 752 µM

Cc1cc(C)c2c(N)c(C(=O)Nc3cccnc3)sc2n1
viability (MDA-MB-231; MTT; 100 µM, 72 h): 55 ± 6%

CN(C(=O)n1cnc(-c2ccc[n+]([O-])c2)c1)C1CCCCC1
compound concentration (COS cells expressing human FAAH; cell lysate; 100 nM, 1 h, quantification limit 5 nM): not detected

CC(c1ccccc1)(c1ccc(O)cc1)c1ccc(O)cc1
viable cells (HepG2 spheroids, dissociated; annexin V-FITC/PI flow cytometry; 10 µM, 96 h): 48.2 ± 5.08%

COCCOCCOCCNC(=O)CSc1nc(-c2ccccc2)cc(C)c1C#N
viability (MDA-MB-231; MTT; 100 µM, 72 h): 55 ± 9%

CC[C@H](C)[C@H](NC(=O)[C@H](Cc1ccccc1)NC(=O)[C@H](CCC(=O)O)NC(=O)[C@H](CCCNC(=N)N)NC(=O)[C@H](C)NC(=O)[C@H](C)NC(=O)[C@H](CCC(N)=O)NC(=O)[C@H](CCC(=O)O)NC(=O)[C@H](CCC(=O)O)NC(=O)[C@H](CC(C)C)NC(=O)[C@H](Cc1ccc(O)cc1)NC(=O)[C@H](CO)NC(=O)[C@H](CO)NC(=O)[C@@H](NC(=O)[C@H](CC(=O)O)NC(=O)[C@H](CO)NC(=O)[C@@H](NC(=O)[C@H](Cc1ccccc1)NC(=O)[C@@H](NC(=O)CNC(=O)[C@H](CCC(=O)O)NC(=O)[C@H](C)NC(=O)CCc1c[nH]cn1)[C@@H](C)O)[C@@H](C)O)C(C)C)C(=O)N[C@@H](C)C(=O)N[C@@H](Cc1c[nH]c2ccccc12)C(=O)N[C@@H](CC(C)C)C(=O)N[C@H](C(=O)N[C@@H](CCCNC(=N)N)C(=O)NCC(=O)N[C@@H](CCCNC(=N)N)C(=O)N[C@@H](CCCCNC(=O)COCCOCCNC(=O)COCCOCCNC(=O)CC[C@H](NC(=O)CCCCCCCCCCCCCCCCC(=O)O)C(=O)O)C(=O)NCC(=O)NCC(=O)N[C@@H](CO)C(=O)N[C@@H](CCCCNc1c(NCCCCCN(O)C(=O)CCC(=O)NCCCCCN(O)C(=O)CCC(=O)NCCCCCN(O)C(C)=O)c(=O)c1=O)C(=O)O)C(C)C [zirconium-89 labelled]
tissue uptake (rat, bone marrow; sc, 3 nmol/kg, 168 h, ex vivo): 0.53 %ID/g

O=C(Nc1cnccc1Cl)N1CCN(Cc2ccc3c(c2)OC(F)(F)O3)CC1
concentration (COS cells expressing human FAAH; COS cell culture supernatant; 100 nM, 24 h): 93.5 ± 3.5 nM

CC(C)CC(=O)OC[C@H]1O[C@@](C#N)(c2ccc3c(N)ncnn23)[C@H](O)[C@@H]1O
efflux ratio (Caco-2; 9 µM, 2 h, added: verapamil 100 µM): 2.09

Cc1cccc(NC(=O)c2sc3nc(-c4ccccc4)cc(C(F)(F)F)c3c2N)n1
viability (MDA-MB-231; MTT; 100 µM, 72 h): 20 ± 4%

Oc1ccc(C2(c3ccc(O)cc3)c3ccccc3-c3ccccc32)cc1
necrotic cells (HepG2 spheroids; annexin V-FITC/PI flow cytometry; 10 µM, 24 h): 6.59 ± 1.66%

A few entries again:
Cc1cc(C)c2c(N)c(C(=O)Nc3cccnc3)sc2n1
viability (MDA-MB-231; MTT; 100 µM, 72 h): 55 ± 6%

CN(C(=O)n1cnc(-c2ccc[n+]([O-])c2)c1)C1CCCCC1
compound concentration (COS cells expressing human FAAH; cell lysate; 100 nM, 1 h, quantification limit 5 nM): not detected
